{"data": "Experimental data pooled from the literature", "note": "A part holds a random share of what one study measured. Positions count from the first letter of the parent shown."}
{"data": "Sample 1", "target": "Sal-like protein 4, full length isoform A (SALL4, Homo sapiens, UniProt Q9UJQ4, residues 1-1053)", "method": "universal PBM", "form": "double-stranded DNA, one strand shown", "sample": "in vitro", "tested at": "600 nM", "notes": "8-mer, flanks averaged, mean of replicates", "reading": "higher = stronger binding", "sequence of UniProt Q9UJQ4 (whole entry, looked up)": "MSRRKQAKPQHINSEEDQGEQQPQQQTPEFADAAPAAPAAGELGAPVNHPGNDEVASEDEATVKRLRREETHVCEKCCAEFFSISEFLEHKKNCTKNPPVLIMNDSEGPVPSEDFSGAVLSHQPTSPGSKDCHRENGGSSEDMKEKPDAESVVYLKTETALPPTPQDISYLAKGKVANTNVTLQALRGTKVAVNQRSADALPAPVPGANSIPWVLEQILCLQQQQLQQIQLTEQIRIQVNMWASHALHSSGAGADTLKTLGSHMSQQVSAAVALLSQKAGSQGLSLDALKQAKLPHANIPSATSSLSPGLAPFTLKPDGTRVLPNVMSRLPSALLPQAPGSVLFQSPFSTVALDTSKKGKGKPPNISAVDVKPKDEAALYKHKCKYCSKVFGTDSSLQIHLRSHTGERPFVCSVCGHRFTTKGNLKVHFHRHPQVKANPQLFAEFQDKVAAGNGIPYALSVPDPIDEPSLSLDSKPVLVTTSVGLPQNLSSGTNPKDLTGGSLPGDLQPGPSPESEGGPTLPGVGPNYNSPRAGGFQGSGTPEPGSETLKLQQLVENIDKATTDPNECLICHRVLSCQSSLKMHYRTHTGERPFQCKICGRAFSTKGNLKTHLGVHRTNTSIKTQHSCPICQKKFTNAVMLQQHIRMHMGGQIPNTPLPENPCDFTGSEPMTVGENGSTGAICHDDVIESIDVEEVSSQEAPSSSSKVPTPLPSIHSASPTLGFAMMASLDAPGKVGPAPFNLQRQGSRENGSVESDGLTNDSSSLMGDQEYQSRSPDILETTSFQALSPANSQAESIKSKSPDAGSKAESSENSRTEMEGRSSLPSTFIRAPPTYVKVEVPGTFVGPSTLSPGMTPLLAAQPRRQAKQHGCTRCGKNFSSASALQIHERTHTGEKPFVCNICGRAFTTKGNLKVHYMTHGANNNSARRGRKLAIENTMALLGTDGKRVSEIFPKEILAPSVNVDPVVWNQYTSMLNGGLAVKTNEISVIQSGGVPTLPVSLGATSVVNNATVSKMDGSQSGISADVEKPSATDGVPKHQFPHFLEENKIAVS"}
{"Strand": "AACTGGGC", "E-score": -0.346}
{"Strand": "GATGCAGA", "E-score": -0.0761}
{"Strand": "CCCTATTC", "E-score": -0.0475}
{"Strand": "CTCGTCGC", "E-score": -0.146}
{"Strand": "GAAGCTGC", "E-score": -0.232}
{"Strand": "ACTACAGC", "E-score": -0.123}
{"Strand": "ACGAACCG", "E-score": -0.207}
{"Strand": "AACAAAGG", "E-score": 0.0289}
{"Strand": "CGGTTATA", "E-score": 0.242}
{"Strand": "CAGGCTCG", "E-score": -0.239}
{"Strand": "GGGAAACA", "E-score": -0.0249}
{"Strand": "ACCCCGGT", "E-score": -0.323}
{"Strand": "AAGGTAAA", "E-score": 0.237}
{"Strand": "AGAGGATA", "E-score": 0.141}
{"Strand": "CCGATACC", "E-score": -0.253}
{"Strand": "TAGGCGAA", "E-score": 0.163}
{"Strand": "GATAGAAA", "E-score": 0.109}
{"Strand": "CGGCTGCA", "E-score": -0.289}
{"Strand": "CTTAGTCA", "E-score": 0.0685}
{"Strand": "AACAGAGT", "E-score": 0.0738}
{"Strand": "CTAGGCGC", "E-score": -0.214}
{"Strand": "GACCGCAC", "E-score": -0.231}
{"Strand": "ACCGCATA", "E-score": 0.163}
{"Strand": "GAGCATTA", "E-score": 0.122}
{"Strand": "GCTTCAGA", "E-score": -0.00449}
{"data": "Sample 2", "target": "CCND3, cyclin fold, Cln2 fusion (human)", "method": "yeast growth competition, sequencing", "sample": "yeast", "notes": "weak parent motif", "reference": "not given", "reading": "higher = stronger binding", "starting sequence": "ORC1 docking peptide (human); PRARKRLELGNLG; partner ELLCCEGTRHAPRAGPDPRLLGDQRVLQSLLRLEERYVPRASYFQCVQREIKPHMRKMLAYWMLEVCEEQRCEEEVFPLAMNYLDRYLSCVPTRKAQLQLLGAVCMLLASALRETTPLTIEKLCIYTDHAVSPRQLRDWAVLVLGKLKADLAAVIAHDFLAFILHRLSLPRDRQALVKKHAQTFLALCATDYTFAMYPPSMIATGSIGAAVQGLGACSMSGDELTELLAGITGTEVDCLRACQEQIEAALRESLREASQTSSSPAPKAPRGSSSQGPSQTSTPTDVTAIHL"}
{"Variant": "PRARKRLEWGNLG [L9W]", "normalised enrichment score": 0.0754}
{"Variant": "PRRRKRLELGNLG [A3R]", "normalised enrichment score": 0.191}
{"Variant": "PGARKRLELGNLG [R2G]", "normalised enrichment score": 0.0879}
{"Variant": "PRERKRLELGNLG [A3E]", "normalised enrichment score": 0.198}
{"Variant": "PRARKRRELGNLG [L7R]", "normalised enrichment score": 0.205}
{"Variant": "DRARKRLELGNLG [P1D]", "normalised enrichment score": 0.159}
{"Variant": "PRARKRLELGNLN [G13N]", "normalised enrichment score": 0.162}
{"Variant": "PRARKRLELGNAG [L12A]", "normalised enrichment score": 0.151}
{"Variant": "PRARRRLELGNLG [K5R]", "normalised enrichment score": 0.319}
{"Variant": "PRTRKRLELGNLG [A3T]", "normalised enrichment score": 0.162}
{"Variant": "YRARKRLELGNLG [P1Y]", "normalised enrichment score": 0.125}
{"Variant": "PRARKRLELGNVG [L12V]", "normalised enrichment score": 0.108}
{"Variant": "PRACKRLELGNLG [R4C]", "normalised enrichment score": 0.0377}
{"Variant": "PRARKLLELGNLG [R6L]", "normalised enrichment score": 0.244}
{"Variant": "SRARKRLELGNLG [P1S]", "normalised enrichment score": 0.032}
{"data": "Sample 3", "target": "RNA binding protein fox-1 homolog 2, RRM domain, GST-SBP tag (RBFOX2, Homo sapiens, UniProt O43251-10, residues 100-194)", "method": "RNA Bind-n-Seq", "form": "RNA", "sample": "in vitro", "tested at": "365 nM", "notes": "natural RNA segment, single round, ends assumed", "reference": "no-protein control", "reading": "higher = stronger binding", "constant ends, left off below": "GGGAGUUCUACAGUCCGACGAUC … UGGAAUUCUCGGGUGCCAA", "Target sequence (chain)": "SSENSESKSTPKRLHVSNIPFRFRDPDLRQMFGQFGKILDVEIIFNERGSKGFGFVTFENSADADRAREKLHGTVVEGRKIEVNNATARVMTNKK"}
{"Strand": "UUUUAUACAAAUAAAUGUAAAUGUAGUUAAAUGAUACAGUAUUUAAUAAAGUGUUCCUUUUCAAGUGUGUACUUCAUUUUGUUUAACCUGGUAGUAAAACCAAACUUUUG", "RBNS enrichment (R)": 0.459}
{"Strand": "UAACAGGUUAGCUAAAAUUGGGAGCAUGCCUUAAAACUUAAAGAUUGUAUGCAUAUAUGUGUAUAUGUUAUAAACGUGAAAUAUAUUUGACACACACAUUCACAUAUAAA", "RBNS enrichment (R)": 0.778}
{"Strand": "UGCUCUUCCAAUGCCCAAGGCAUGGCAUGGUGGCAGCUGUGCCCCCGCCCAUUGCUUUGGAGCACAGAUGACUCUGGGGGCAGAGGUGGGCUCUGUUUAGGAGGGCAGUG", "RBNS enrichment (R)": 0.708}
{"Strand": "CCUGGGCAUCUGGGGACAGGAACACCUCUCAGGGUGGCCAAGAGGGGCUUCCUUGGGACCAGUGCAAGGAAGUUCUGCUGUCCCUGGGAAGUCUCAGAACCAGGAAGGAA", "RBNS enrichment (R)": 0.325}
{"Strand": "AAUAGCAAAUAUAUUUUAUAAAGUGAAAAUCCAGUGUGGAGGUAGCAAAGCAUCUAUCUAUUCUGAAUCAUGUUUGGAAAUAAAAUUGCUCCAUCUGGGAAUGUGCUUUC", "RBNS enrichment (R)": 1.08}
{"Strand": "UCCCAUAAACUAUGUAUUUUGGCAAGACACUUCACUACUCCAGGUCUCACUUUCCCCAUCUGUAAAACAGGGUUUGGACUAGGUGUUCCCUGGUAUUCUGUGAUCUGCCU", "RBNS enrichment (R)": 0.508}
{"Strand": "AAGUGGACACACUUGAGAAACAGUGGAGGGAGAGUGUGAAAGCCACACGCUUGCCCUGGUUGGUCCUGUCUUUAGGCAGAUGUGGUCAGUAUUCUGUUCCCCAGGCAUAC", "RBNS enrichment (R)": 0.19}
{"Strand": "UGUAGGCUUCUGUGCACCACACGGCACAGCCCACUGAUUGCUGCCACCGGCUCUGUCUUGGUCAGUGUUACCACUGCCAGCACUCAGGCUGUGGCAGAUGCCAGCAGCUC", "RBNS enrichment (R)": 0.227}
{"data": "Sample 4", "target": "Histone acetyltransferase KAT6A, winged helix 1, GST fusion (KAT6A, Homo sapiens, UniProt Q92794, residues 1-85)", "method": "protein binding microarray", "form": "double-stranded DNA, one strand shown", "sample": "in vitro", "tested at": "not given", "notes": "8-mer, flanks averaged, mean of 2 arrays, mostly near background", "reference": "not given", "reading": "higher = stronger binding", "Target sequence (chain)": "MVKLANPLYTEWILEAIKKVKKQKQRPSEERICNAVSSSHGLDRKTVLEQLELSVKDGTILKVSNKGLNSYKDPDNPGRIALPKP"}
{"Strand": "GAGTGGGC", "E-score": -0.0818}
{"Strand": "AATCTCCC", "E-score": -0.0585}
{"Strand": "CCCGCCCG", "E-score": 0.434}
{"Strand": "CCTTTGGA", "E-score": -0.185}
{"Strand": "CAAGTAAG", "E-score": -0.249}
{"Strand": "AGTACCGA", "E-score": 0.0599}
{"Strand": "ATACCAGA", "E-score": -0.18}
{"Strand": "CATGGATC", "E-score": -0.00942}
{"Strand": "GACGCTCA", "E-score": 0.0802}
{"Strand": "AGCCTAAG", "E-score": -0.244}
{"Strand": "CGTCGTAC", "E-score": 0.156}
{"Strand": "ACAGTTAG", "E-score": 0.0364}
{"Strand": "CTCAAGCA", "E-score": -0.269}
{"Strand": "AATACCTC", "E-score": -0.0501}
{"Strand": "GACGGACA", "E-score": 0.317}
{"Strand": "CGAATTAA", "E-score": -0.204}
{"Strand": "ACTTACAC", "E-score": -0.109}
{"Strand": "ACTTAAGG", "E-score": -0.159}
{"Strand": "GCCACCGC", "E-score": 0.308}
{"data": "Sample 5", "target": "Centromere-binding protein 1, full length, N-terminal tag (CBF1, Saccharomyces cerevisiae, UniProt P17106, residues 1-351)", "method": "protein-binding microarray", "form": "double-stranded DNA, one strand shown", "sample": "in vitro", "tested at": "0.8 µM", "notes": "whole 60-bp probe, no competitor", "reading": "higher = stronger binding", "constant ends, left off below": "… GTCTTGATTCGCTTGACGCTGCTG", "sequence of UniProt P17106 (whole entry, looked up)": "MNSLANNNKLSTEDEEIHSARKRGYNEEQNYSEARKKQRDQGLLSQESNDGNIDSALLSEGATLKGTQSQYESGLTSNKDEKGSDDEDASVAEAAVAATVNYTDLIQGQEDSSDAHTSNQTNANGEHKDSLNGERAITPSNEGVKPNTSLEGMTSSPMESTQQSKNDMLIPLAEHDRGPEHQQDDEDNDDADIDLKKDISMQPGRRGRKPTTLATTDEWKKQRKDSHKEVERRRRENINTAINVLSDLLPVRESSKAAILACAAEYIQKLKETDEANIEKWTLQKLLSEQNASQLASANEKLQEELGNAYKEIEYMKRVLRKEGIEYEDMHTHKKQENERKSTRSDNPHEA"}
{"Strand": "CTAACGATCAAATATAACATCACAAAGCTTACATTC", "fluorescence intensity": "522 a.u."}
{"Strand": "CTAATGCAGAAAGGTTGTCTCATGAAATAAAAATTC", "fluorescence intensity": "587 a.u."}
{"Strand": "CTAAACAAGAAACGTGACGGTACTCATAAAGCTTTC", "fluorescence intensity": "1900 a.u."}
{"Strand": "GAACCGTTTTTATTTCATGAGACAACCTTTCTGTAG", "fluorescence intensity": "598 a.u."}
{"Strand": "CTAACCATTGTTCATCACGATCATGAAACTCGCTTC", "fluorescence intensity": "618 a.u."}
{"Strand": "GAAAGAAAAATTACTTTCATGATGCGAAGCGAATAG", "fluorescence intensity": "507 a.u."}
{"Strand": "GAAGAAGTAAGTAGTCACGCTTATTCTGACGCTTAG", "fluorescence intensity": "886 a.u."}
{"Strand": "TGTACGAAGCTATACCTCGTGATTATAGTAGTTAGG", "fluorescence intensity": "1820 a.u."}
{"Strand": "CTATTTGCTCTTTATCACCACGCTTTTCCTCTCTTC", "fluorescence intensity": "534 a.u."}
{"Strand": "CTAACTGAAGTGCAGCTGACGATCCAGTCAGCGTTC", "fluorescence intensity": "614 a.u."}
{"Strand": "CTATCAGAATATGAAAACGTGTCGAACGGGGATTTC", "fluorescence intensity": "599 a.u."}
{"Strand": "CTATCATTGAAAAGGAACGTGATACAGACGTAATTC", "fluorescence intensity": "1480 a.u."}
{"Strand": "CTAGATATCATCATTCACGAGATCCATCTCGTGTTC", "fluorescence intensity": "943 a.u."}
